Assay results from different studies.
Every numbered part comes from another study and shows a few of its results, in no order. Substitutions count along the parent as printed.

Block 1 — method: RNA Bind-n-Seq; form: RNA; medium: in vitro; tested at: 20 nM; setting: 6-mer, flanks averaged, single round; with: 150 mM LiCl; reference: input library; direction: higher = stronger binding
Target: TAR DNA-binding protein 43, full length, His tag (TARDBP, Homo sapiens, UniProt Q13148, residues 1-414)
| Sequence | 6-mer enrichment (R) |
| --- | --- |
| CGGUGC | 0.982 |
| GAGCGU | 1.03 |
| GCAACG | 0.878 |
| UAUAAU | 1.11 |
| AUCGCU | 0.832 |
| GUACUG | 0.942 |
| AUCUGG | 0.883 |
| AUCUUC | 0.842 |

Block 2 — target: inorganic phosphate, free oxyanion; method: microfluidic competitive inhibition; medium: in vitro, cell-free expressed; tested at: not given; direction: lower = stronger binding
Setting: derived from inhibition constants, unchanged parent 615000 nM
Parent: PafA, mature enzyme, eGFP fusion (Elizabethkingia meningoseptica, UniProt Q9KJX5); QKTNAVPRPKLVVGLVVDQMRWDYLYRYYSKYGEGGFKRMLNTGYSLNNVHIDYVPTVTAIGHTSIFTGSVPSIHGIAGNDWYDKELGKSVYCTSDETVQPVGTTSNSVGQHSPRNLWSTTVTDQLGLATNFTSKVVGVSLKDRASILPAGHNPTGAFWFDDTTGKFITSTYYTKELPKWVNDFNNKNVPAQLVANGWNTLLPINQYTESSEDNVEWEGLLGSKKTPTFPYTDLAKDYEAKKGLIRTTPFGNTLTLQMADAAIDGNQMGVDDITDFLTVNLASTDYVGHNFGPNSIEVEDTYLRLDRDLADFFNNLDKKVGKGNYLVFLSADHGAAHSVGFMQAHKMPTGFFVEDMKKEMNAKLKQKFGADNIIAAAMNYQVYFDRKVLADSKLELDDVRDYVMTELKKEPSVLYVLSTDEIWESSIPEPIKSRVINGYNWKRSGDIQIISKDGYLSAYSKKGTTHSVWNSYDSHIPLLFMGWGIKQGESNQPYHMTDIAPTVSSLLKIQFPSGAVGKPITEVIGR
| Substitution | phosphate dissociation constant [µM] |
| --- | --- |
| S95V | 1870 |
| D260V | 574 |
| G288V | 471 |
| I449V | 613 |
| G243A | 563 |
| G138A | 547 |
| D84V | 853 |
| L148G | 257 |
| Q206G | 444 |
| W118V | 528 |
| E406V | 648 |
| S418V | 638 |
| S460G | 407 |
| E354G | 502 |
| T68V | 363 |
| K387V | 680 |

Block 3 — target: CCNF, cyclin fold, Cln2 fusion (human); method: yeast growth competition, sequencing; medium: yeast; setting: strong parent motif; reference: not given; direction: higher = stronger binding; parent: viral docking peptide; YKVKRRLVFGADD
| Substitution | normalised enrichment score |
| --- | --- |
| K4Q | 8.53 |
| L7H | 0.602 |
| K4H | 8.63 |
| V8S | 7.86 |
| G10T | 8.1 |
| K4V | 9.17 |
| D12P | 8.84 |
| K4D | 7.52 |
| D12R | 8.86 |
| V8M | 9.36 |
| G10F | 8.54 |
| D12V | 9.09 |
| K4P | 8.38 |
| R6S | 8.53 |
| F9N | 1.15 |
| D12C | 8.77 |
| V8R | 9.31 |

Block 4 — method: aptamer microarray, sandwich; form: DNA with 2'F-ANA; medium: in vitro; tested at: 200 nM; with: Cy3 exosite-II aptamer, 400 nM; direction: higher = stronger binding; sequence: GGTTGGTGTGGTTGG
Target: Prothrombin, mature alpha-thrombin (F2, Homo sapiens, UniProt P00734)
Setting: whole 15-mer aptamer, many near background
| Modification | mean fluorescence intensity [a.u.] |
| --- | --- |
| 2'F-ANA at 1 2 6 8 9 10 13 | 49.5 |
| 2'F-ANA at 1 3 6 7 9 12 14 15 | 265 |
| 2'F-ANA at 1 2 4 6 12 14 | 60.4 |
| 2'F-ANA at 1 2 3 5 7 13 | 49.3 |
| 2'F-ANA at 7 8 11 12 13 14 | 283 |
| 2'F-ANA at 2 3 5 8 9 10 13 15 | 53.9 |
| 2'F-ANA at 2 5 7 8 10 11 13 14 15 | 48 |
| 2'F-ANA at 3 7 8 12 14 15 | 845 |
